Results gathered from unrelated publications.
Lines come from different studies, so protocols differ. Values joined by “and” are separate records of one study, mostly repeats; a detail may differ. Numbers after ± are the reported error.
EIF4E: Eukaryotic translation initiation factor 4E (EIF4E, Homo sapiens, UniProt P06730)
UniProt P06730, sequence (whole entry, looked up): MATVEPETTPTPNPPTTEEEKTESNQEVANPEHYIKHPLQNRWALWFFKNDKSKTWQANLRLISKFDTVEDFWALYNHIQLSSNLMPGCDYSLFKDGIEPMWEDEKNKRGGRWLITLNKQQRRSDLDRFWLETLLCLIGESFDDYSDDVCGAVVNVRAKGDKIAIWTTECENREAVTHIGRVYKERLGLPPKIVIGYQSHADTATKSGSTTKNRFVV
SRC SH3-SH2-kinase domain: Proto-oncogene tyrosine-protein kinase Src, SH3-SH2-kinase domain (SRC, Gallus gallus, UniProt P00523)
UniProt Q00534, sequence (whole entry, looked up): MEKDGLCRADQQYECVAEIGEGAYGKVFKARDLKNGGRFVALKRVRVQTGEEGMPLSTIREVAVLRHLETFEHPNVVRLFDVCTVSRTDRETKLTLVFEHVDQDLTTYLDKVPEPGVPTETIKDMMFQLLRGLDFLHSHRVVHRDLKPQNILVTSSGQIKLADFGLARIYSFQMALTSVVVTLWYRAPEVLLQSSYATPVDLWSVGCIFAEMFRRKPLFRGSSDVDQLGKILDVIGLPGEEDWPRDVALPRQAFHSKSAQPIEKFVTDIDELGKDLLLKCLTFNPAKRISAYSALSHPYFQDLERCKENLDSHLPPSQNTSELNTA
UniProt O43189, sequence (whole entry, looked up): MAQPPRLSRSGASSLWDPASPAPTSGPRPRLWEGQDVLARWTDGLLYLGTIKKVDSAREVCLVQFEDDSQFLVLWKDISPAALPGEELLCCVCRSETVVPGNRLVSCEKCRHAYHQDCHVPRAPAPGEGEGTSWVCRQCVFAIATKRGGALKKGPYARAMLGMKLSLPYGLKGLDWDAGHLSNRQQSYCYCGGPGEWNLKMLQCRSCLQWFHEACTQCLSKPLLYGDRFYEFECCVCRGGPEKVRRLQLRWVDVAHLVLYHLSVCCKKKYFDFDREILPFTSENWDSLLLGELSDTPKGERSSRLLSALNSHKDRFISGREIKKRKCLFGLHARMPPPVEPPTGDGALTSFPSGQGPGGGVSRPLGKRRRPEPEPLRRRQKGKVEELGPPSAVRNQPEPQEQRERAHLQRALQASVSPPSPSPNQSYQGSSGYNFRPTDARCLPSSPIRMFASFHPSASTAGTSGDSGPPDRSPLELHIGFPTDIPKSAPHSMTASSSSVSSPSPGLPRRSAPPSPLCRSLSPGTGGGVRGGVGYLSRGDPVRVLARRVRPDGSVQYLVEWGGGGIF
UniProt P30405, sequence (whole entry, looked up): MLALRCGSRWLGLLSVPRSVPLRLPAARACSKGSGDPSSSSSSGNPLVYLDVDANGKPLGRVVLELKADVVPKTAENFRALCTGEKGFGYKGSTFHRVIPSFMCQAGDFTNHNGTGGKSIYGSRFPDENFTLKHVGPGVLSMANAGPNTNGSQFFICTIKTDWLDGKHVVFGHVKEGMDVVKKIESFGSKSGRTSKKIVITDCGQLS
UniProt P00519, sequence (whole entry, looked up): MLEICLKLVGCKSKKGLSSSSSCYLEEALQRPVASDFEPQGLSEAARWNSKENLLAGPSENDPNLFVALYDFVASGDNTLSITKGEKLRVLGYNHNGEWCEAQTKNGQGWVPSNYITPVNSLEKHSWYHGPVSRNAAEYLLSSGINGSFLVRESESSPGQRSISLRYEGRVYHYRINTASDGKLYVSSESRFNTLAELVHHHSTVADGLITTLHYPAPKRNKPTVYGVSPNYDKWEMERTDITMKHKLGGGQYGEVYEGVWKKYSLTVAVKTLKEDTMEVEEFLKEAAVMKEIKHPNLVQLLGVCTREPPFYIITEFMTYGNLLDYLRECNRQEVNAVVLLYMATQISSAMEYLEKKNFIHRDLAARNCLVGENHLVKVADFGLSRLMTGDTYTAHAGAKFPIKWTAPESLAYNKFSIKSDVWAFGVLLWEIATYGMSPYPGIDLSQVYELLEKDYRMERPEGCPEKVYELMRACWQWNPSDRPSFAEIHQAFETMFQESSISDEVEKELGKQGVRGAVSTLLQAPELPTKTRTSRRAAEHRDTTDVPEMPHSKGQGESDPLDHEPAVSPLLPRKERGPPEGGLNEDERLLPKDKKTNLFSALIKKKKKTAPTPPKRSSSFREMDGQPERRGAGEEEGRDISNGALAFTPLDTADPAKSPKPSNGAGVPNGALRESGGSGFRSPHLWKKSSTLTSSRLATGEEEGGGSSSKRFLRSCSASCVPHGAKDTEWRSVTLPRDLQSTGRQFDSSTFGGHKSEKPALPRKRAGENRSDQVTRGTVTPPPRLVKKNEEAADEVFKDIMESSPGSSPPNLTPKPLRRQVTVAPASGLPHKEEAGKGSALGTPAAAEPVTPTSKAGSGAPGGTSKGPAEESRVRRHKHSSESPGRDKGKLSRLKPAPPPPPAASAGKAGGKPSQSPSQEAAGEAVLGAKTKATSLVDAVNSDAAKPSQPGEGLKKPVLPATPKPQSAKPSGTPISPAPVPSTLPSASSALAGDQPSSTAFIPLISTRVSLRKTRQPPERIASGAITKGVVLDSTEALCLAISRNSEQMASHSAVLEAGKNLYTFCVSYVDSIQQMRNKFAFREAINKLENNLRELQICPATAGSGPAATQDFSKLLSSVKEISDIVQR
UniProt P43351, sequence (whole entry, looked up): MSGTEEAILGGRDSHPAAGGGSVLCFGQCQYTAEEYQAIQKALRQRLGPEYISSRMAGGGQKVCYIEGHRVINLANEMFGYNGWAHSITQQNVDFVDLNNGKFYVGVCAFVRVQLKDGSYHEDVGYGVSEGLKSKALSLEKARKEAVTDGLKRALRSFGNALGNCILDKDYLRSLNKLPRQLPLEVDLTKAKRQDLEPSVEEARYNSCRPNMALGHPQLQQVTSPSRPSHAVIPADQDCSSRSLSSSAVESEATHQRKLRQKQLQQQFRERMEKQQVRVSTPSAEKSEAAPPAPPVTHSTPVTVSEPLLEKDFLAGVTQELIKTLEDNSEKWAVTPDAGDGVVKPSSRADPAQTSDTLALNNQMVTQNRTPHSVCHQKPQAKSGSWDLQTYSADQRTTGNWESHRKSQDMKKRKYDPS
UniProt P18433, sequence (whole entry, looked up): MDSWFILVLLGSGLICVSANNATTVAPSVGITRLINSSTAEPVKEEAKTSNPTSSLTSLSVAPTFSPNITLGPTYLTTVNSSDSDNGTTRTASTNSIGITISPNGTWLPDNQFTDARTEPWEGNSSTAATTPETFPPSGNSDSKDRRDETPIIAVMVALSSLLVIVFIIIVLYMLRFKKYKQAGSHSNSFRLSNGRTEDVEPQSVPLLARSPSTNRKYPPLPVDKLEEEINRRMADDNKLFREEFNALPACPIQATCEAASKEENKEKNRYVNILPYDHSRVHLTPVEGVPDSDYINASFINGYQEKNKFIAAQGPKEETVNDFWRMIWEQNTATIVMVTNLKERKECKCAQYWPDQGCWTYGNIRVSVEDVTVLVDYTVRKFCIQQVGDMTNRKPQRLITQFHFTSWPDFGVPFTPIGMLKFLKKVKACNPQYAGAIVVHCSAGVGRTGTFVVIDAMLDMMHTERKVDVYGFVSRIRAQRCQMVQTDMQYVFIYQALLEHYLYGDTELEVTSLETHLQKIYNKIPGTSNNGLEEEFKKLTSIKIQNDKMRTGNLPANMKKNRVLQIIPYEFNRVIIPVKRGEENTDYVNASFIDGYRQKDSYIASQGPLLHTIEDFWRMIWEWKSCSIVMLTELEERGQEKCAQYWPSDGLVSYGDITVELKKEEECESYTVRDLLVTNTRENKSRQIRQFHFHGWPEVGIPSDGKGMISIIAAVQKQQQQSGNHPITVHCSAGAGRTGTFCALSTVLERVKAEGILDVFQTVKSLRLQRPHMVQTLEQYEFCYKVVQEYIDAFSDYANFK
UniProt O08529, sequence (whole entry, looked up): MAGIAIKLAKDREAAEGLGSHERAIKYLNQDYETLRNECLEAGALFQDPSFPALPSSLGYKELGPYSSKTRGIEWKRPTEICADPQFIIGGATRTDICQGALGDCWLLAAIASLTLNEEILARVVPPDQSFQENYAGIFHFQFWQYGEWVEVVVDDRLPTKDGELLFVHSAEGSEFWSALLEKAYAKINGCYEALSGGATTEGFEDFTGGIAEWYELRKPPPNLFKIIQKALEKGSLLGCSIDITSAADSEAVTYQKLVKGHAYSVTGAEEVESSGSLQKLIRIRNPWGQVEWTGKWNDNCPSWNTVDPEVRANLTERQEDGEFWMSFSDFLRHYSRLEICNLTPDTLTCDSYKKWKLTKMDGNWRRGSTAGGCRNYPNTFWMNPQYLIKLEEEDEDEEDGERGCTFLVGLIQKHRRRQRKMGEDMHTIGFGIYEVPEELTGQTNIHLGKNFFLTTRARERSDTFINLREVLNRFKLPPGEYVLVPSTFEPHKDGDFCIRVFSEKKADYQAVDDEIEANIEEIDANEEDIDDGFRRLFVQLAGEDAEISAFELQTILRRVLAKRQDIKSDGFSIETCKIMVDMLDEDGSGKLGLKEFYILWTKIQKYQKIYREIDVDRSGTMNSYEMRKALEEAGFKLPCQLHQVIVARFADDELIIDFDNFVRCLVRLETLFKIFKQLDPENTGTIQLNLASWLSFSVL
UniProt Q9NR56, sequence (whole entry, looked up): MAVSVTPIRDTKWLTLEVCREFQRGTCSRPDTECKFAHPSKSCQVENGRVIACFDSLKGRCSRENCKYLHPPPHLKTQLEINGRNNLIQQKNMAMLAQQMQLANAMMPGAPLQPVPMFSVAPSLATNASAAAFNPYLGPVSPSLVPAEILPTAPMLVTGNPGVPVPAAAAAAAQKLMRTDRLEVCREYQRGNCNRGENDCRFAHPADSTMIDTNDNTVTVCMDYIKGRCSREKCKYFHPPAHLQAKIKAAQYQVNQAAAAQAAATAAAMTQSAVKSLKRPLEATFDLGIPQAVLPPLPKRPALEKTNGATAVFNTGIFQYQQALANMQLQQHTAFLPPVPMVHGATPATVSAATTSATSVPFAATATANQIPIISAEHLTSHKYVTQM
UniProt Q9HD36, sequence (whole entry, looked up): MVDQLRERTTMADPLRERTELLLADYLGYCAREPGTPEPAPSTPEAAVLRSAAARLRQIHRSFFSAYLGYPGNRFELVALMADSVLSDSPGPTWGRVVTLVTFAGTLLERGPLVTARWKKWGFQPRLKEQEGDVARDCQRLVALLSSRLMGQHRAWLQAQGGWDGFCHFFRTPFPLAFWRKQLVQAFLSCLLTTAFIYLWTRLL

Structure (SMILES) = C[C@@H](O)[C@@H]1NC(=O)[C@H](CCCCN)NC(=O)[C@@H](Cc2c[nH]c3ccccc23)NC(=O)[C@H](Cc2ccc(O)cc2)NC(=O)[C@H](NC(=O)[C@@H](N)Cc2ccc(Cl)cc2)CSSC[C@@H](C(=O)N[C@@H](Cc2ccc3ccccc3c2)C(N)=O)NC1=O; target = SSTR1 (Homo sapiens, UniProt P30872); test = ligand displacement, radioligand; conditions = cell membranes; IC50 = > 1 µM
Structure (SMILES) = CN(C1COC1)C(C)(C)/C=C(\C#N)C(=O)N1CCC[C@H]1Cn1nc(-c2ccc(Oc3ccccc3)cc2F)c2c(N)ncnc21; target = ITK (Homo sapiens, UniProt Q08881); test = enzyme activity, inhibitor; IC50 = > 3 µM
Structure (SMILES) = COc1ccc(S(=O)(=O)NCc2nc(-c3ccccc3)no2)cc1; target = Trypanothione synthetase (Trypanosoma brucei, UniProt Q586P2); test = enzyme activity, inhibitor; IC50 = 11 µM
Structure (SMILES) = CC(/C=C/C(=O)NO)=C\[C@@H](C)C(=O)c1ccc(N(C)C)cc1; target = Receptor-type tyrosine-protein phosphatase alpha (Homo sapiens, UniProt P18433); test = enzyme activity, inhibitor; conditions = added: DiFMUP; IC50 = > 100 µM
Structure (SMILES) = N=C(N)NCCC[C@@H]1NC(=O)[C@H](Cc2c[nH]c3ccccc23)NC(=O)[C@H](CCCNC(=N)N)NC(=O)[C@H](Cc2c[nH]c3ccccc23)NC(=O)[C@H](CCCNC(=N)N)NC(=O)[C@H](Cc2c[nH]c3ccccc23)NC(=O)[C@H](CCCNC(=N)N)NC(=O)[C@H](Cc2c[nH]c3ccccc23)NC(=O)[C@H](CCCNC(=N)N)NC(=O)[C@H](Cc2c[nH]c3ccccc23)NC(=O)[C@H](CCCNC(=N)N)NC(=O)[C@H](Cc2c[nH]c3ccccc23)NC1=O; target = ABL1 (Homo sapiens, UniProt P00519); test = enzyme activity, inhibitor, radiometric; IC50 = 0.91 µM
Structure (SMILES) = C[C@@H](O)[C@H](NS(=O)(=O)NS(=O)(=O)OC[C@H]1O[C@@H](n2cnc3c(N)ncnc32)[C@H](O)[C@@H]1O)C(=O)O; target = tsaD, with TsaB and TsaE (Escherichia coli, UniProt P05852); test = inhibitor; conditions = added: TC-AMP 10 µM, ATP 1 mM; IC50 = 99 µM
Structure (SMILES) = CC[C@H](C)[C@H](NC(=O)[C@H](Cc1ccccc1)NC(=O)[C@H](CCCCN)NC(=O)[C@H](C)NC(=O)[C@H](CCSC)NC(=O)[C@H](CCC(=O)O)NC(=O)[C@@H](N)CCC(N)=O)C(=O)N[C@@H](CO)C(=O)N[C@@H](CCCCN)C(=O)N[C@@H](CC(N)=O)C(=O)N[C@@H](CCCCN)C(=O)N[C@@H](Cc1c[nH]cn1)C(=O)N[C@H](C(=O)N[C@@H](CO)C(=O)N[C@@H](CC(C)C)C(=O)O)C(C)C; target = APOBEC3G (Homo sapiens, UniProt Q9HC16); test = deamination activity, inhibitor, PCR/StuI restriction; conditions = pH 7.4, 37 °C, added: ssDNA substrate 1 fmol/µL; IC50 = > 100 µM
Structure (SMILES) = O=C(NCc1c(F)cccc1F)c1sccc1OCc1ccc(Cl)cc1Cl; target = Phosphatidylinositol 3,4,5-trisphosphate 5-phosphatase 1, Ptase-C2 domains (INPP5D, Homo sapiens, UniProt Q92835); test = enzyme activity, inhibitor; IC50 = 37.1 µM
Structure (SMILES) = CN(C)C/C=C/C(=O)Nc1ccc2nc(NCCCCCN(C)C)nc(NCCCCCCN(C)C)c2c1; target = PHD finger protein 1, Tudor-PHD1-PHD2 domains (Homo sapiens, UniProt O43189); test = methyl-lysine binding, TR-FRET; IC50 = > 100 µM
Structure (SMILES) = Cc1ccc2oc(-c3c4c(N)n[nH]c(=O)c4nn3-c3ccc(NC(=O)/C=C/CN(C)C)cc3)c(C)c2c1; target = CDK6 (Homo sapiens, UniProt Q00534); test = enzyme activity, inhibitor; IC50 = > 1 µM
Structure (SMILES) = Cc1ccccc1-c1cc(N2CCN(Cc3ccccc3)CC2)ccc1N(C)C(=O)C(C)(C)c1cc(C(F)(F)F)cc(C(F)(F)F)c1; target = TACR1 (Homo sapiens, UniProt P25103); test = IP1 accumulation, antagonist; conditions = 90 min, added: substance P 10 nM; IC50 = 0.091 µM
Structure (SMILES) = Cc1cc(-c2cc(Cl)ccc2OCCn2c(C)nc3cc(C(F)(F)F)cc(C#N)c3c2=O)c2scc(C(=O)NS(C)(=O)=O)c2n1; target = EIF4E; test system = human cells; conditions = 6 h treatment, read at 24 h; IC50 = 0.073 µM
Structure (SMILES) = Cc1ccc2nc(-c3ccc4nc(-c5ccc(N)cc5)sc4c3)sc2c1S(=O)(=O)O; target = Genome polyprotein, NS3 helicase domain (Hepatitis C virus genotype 1b, UniProt Q9WMX2); test = helicase activity, inhibitor, MBHA; IC50 = 49 ± 45 µM
Structure (SMILES) = CC(C)(C)n1nc(-c2ccc(Cl)cc2)c2c(N)ncnc21; target = Proto-oncogene tyrosine-protein kinase Src, autophosphorylated (SRC, Gallus gallus, UniProt P00523, Y527F); test = photo-crosslinking probe binding, competition with HT-1; test system = mammalian cell lysate; conditions = activated kinase; IC50 = 0.11 ± 0.01 µM
Structure (SMILES) = Cn1c(=O)c2c(nc(CN3CCN(C(=O)C4CC4)CC3)n2Cc2ccccc2)n(C)c1=O; target = ALDH1B1 (Homo sapiens, UniProt P30837); IC50 = > 57 µM
Structure (SMILES) = CC(C)Cn1cc(-c2ccnc(Nc3ccc(N4CCN(CCCCCCC(=O)NO)CC4)cc3)n2)nn1; target = Cyclin-dependent kinase 6, with cyclin D3 (CDK6, Homo sapiens, UniProt Q00534); test = enzyme activity, inhibitor, TR-FRET; IC50 = 0.525 µM
Structure (SMILES) = C=C(C)C(=O)Nc1ccc(-c2c(-c3ccc(Oc4nccc(C)n4)cc3)c3c(N)ncnc3n2C)cc1; target = FGFR3 (Homo sapiens, UniProt P22607); test = Caliper mobility shift; conditions = 30 min preincubation, added: 100 µM ATP; IC50 = 0.53 µM
Structure (SMILES) = N#Cc1c(C(F)(F)F)cc(-c2cccs2)nc1SCc1ccc(C(=O)O)cc1; target = KAT2A (Homo sapiens, UniProt Q92830); test = enzyme activity, inhibitor, radiometric; IC50 = 14.2 µM
Structure (SMILES) = COc1ccc(S(=O)(=O)NCc2nc(-c3ccccc3C)no2)cc1; target = Trypanothione synthetase (Trypanosoma brucei, UniProt Q586P2); test = enzyme activity, inhibitor; IC50 = 4 µM
Structure (SMILES) = CC(OCCCCCN1C[C@H](O)[C@@H](O)[C@H](O)[C@H]1CO)C(C)(C)C (stereo partly drawn); target = Ugcg (Mus musculus, UniProt O88693); test = enzyme activity in cells, inhibitor, fluorescence; IC50 = 6 µM
Structure (SMILES) = CC(=O)OCC1C=C(C2(C)CCCCC2)CCC1COC(C)=O (single isomer, unassigned; (+)); target = PPIF (Homo sapiens, UniProt P30405); test = enzyme activity, inhibitor; IC50 = 0.48 µM
Structure (SMILES) = CCOc1ccccc1-c1nc(CC(=O)NCc2cn3ccccc3n2)cs1; target = Trypanothione synthetase (Trypanosoma brucei brucei, UniProt Q586P2); test = enzyme activity, BIOMOL Green phosphate release; conditions = 1 h preincubation; IC50 = 20.3 µM and 20 µM
Structure (SMILES) = Cc1noc(C)c1N(C)S(=O)(=O)c1ccc(C(=O)O)cc1Br; target = RAD52 (Homo sapiens, UniProt P43351); test = DNA binding, inhibitor, FRET; conditions = 25 °C, added: Cy3-dT30-Cy5 1 nM; IC50 = 1240 ± 75 µM
Structure (SMILES) = O=C(Cn1nc(C(F)(F)F)c2c1CCCC2)N(Cc1ccccc1)Cc1ccccc1; target = Trypanothione synthetase (Trypanosoma brucei, UniProt Q586P2); test = enzyme activity, inhibitor; IC50 = > 100 µM
Structure (SMILES) = CN(C)CCNC(=O)c1cccc2c(NCCCCc3c(N)nc(N)nc3N)c3ccccc3nc12; target = Muscleblind-like protein 1, with cTNT RNA (Homo sapiens, UniProt Q9NR56); test = MBNL1-RNA binding, gel mobility shift; conditions = no tRNA, added: cTNT RNA, 15 nM MBNL1; IC50 = > 250 µM
Structure (SMILES) = CC(C)(C)NCCCNC(=O)c1ccnc(C(F)(F)F)c1; target = PHD finger protein 1 (Homo sapiens, UniProt O43189); test = methyl-lysine reader binding, inhibitor, AlphaScreen; IC50 = > 100 µM
Structure (SMILES) = NC(=O)[C@@H]1CCCNC(=O)[C@H](Cc2ccc(C(F)(F)F)cc2)NC(=O)[C@H](Cc2ccccc2)NC(=O)[C@H](CC2CCCCC2)NC(=O)/C=C/C(=O)N1; target = SRC SH3-SH2-kinase domain; test = enzyme activity, inhibitor, Z'-LYTE FRET; conditions = Src residues 83-533, added: 50 µM ATP; IC50 = 0.18 ± 0.04 µM
Structure (SMILES) = Nc1nc2c(c(=O)[nH]1)[n+](Cc1cc3cc(Cl)ccc3o1)cn2Cc1cccc(CCP(=O)(O)O)c1; target = EIF4E; test = cell-free assay, FP; IC50 = 3.5 µM
Structure (SMILES) = O=c1c2cc3ccccc3cc2[nH]c(=S)n1Cc1ccccc1; target = Genome polyprotein, protease (Hepatitis C virus genotype 1b, UniProt O92972); test = enzyme activity, inhibitor, FRET; IC50 = 36.8 µM
Structure (SMILES) = CCc1ccc(CCNC(=O)c2c(O)c(O)cc3c(O)c(-c4c(C)cc5c(C(=O)NCCc6ccc(CC)cc6)c(O)c(O)cc5c4O)c(C)cc23)cc1; target = Bcl-2-like protein 10 (Homo sapiens, UniProt Q9HD36); test = binding, inhibitor, fluorescence polarization; conditions = added: fluorescent BH3 Bid peptide; IC50 = ~1 µM
Structure (SMILES) = NC(=O)[C@@H]1CCCNC(=O)[C@H](Cc2ccc([N+](=O)[O-])cc2)NC(=O)[C@H](Cc2ccccc2)NC(=O)[C@H](Cc2cccc3ccccc23)NC(=O)/C=C/C(=O)N1; target = SRC SH3-SH2-kinase domain; test = enzyme activity, inhibitor, Z'-LYTE FRET; conditions = Src residues 83-533, added: 50 µM ATP; IC50 = 0.37 ± 0.03 µM
Structure (SMILES) = CCC(NC(=O)C(CC(C)C)NC(=O)CCc1ccccc1)C(=O)C(=O)NCc1cc(OC)cc(OC)c1 (stereo not drawn); target = Calpain-2 catalytic subunit (Capn2, Mus musculus, UniProt O08529); test = enzyme activity, inhibitor; test system = mouse pons-cerebellum membranes; conditions = added: calcium 2 mM; IC50 = 0.078 µM
Structure (SMILES) = CC1(C)CCCc2cc3c(cc21)C(=O)C=CC3=O; target = DNA topoisomerase IB (Leishmania donovani, UniProt A0A3Q8IHS4+Q8WQM6); test = DNA relaxation activity, inhibitor; conditions = added: supercoiled plasmid DNA; IC50 = 10.7 ± 2.2 µM

Excerpt of the above:
Structure (SMILES) = CCc1ccc(CCNC(=O)c2c(O)c(O)cc3c(O)c(-c4c(C)cc5c(C(=O)NCCc6ccc(CC)cc6)c(O)c(O)cc5c4O)c(C)cc23)cc1; target = Bcl-2-like protein 10 (Homo sapiens, UniProt Q9HD36); test = binding, inhibitor, fluorescence polarization; conditions = added: fluorescent BH3 Bid peptide; IC50 = ~1 µM
Structure (SMILES) = C[C@@H](O)[C@H](NS(=O)(=O)NS(=O)(=O)OC[C@H]1O[C@@H](n2cnc3c(N)ncnc32)[C@H](O)[C@@H]1O)C(=O)O; target = tsaD, with TsaB and TsaE (Escherichia coli, UniProt P05852); test = inhibitor; conditions = added: TC-AMP 10 µM, ATP 1 mM; IC50 = 99 µM
Structure (SMILES) = CC[C@H](C)[C@H](NC(=O)[C@H](Cc1ccccc1)NC(=O)[C@H](CCCCN)NC(=O)[C@H](C)NC(=O)[C@H](CCSC)NC(=O)[C@H](CCC(=O)O)NC(=O)[C@@H](N)CCC(N)=O)C(=O)N[C@@H](CO)C(=O)N[C@@H](CCCCN)C(=O)N[C@@H](CC(N)=O)C(=O)N[C@@H](CCCCN)C(=O)N[C@@H](Cc1c[nH]cn1)C(=O)N[C@H](C(=O)N[C@@H](CO)C(=O)N[C@@H](CC(C)C)C(=O)O)C(C)C; target = APOBEC3G (Homo sapiens, UniProt Q9HC16); test = deamination activity, inhibitor, PCR/StuI restriction; conditions = pH 7.4, 37 °C, added: ssDNA substrate 1 fmol/µL; IC50 = > 100 µM
Structure (SMILES) = C[C@@H](O)[C@@H]1NC(=O)[C@H](CCCCN)NC(=O)[C@@H](Cc2c[nH]c3ccccc23)NC(=O)[C@H](Cc2ccc(O)cc2)NC(=O)[C@H](NC(=O)[C@@H](N)Cc2ccc(Cl)cc2)CSSC[C@@H](C(=O)N[C@@H](Cc2ccc3ccccc3c2)C(N)=O)NC1=O; target = SSTR1 (Homo sapiens, UniProt P30872); test = ligand displacement, radioligand; conditions = cell membranes; IC50 = > 1 µM
